Assay results pooled from the literature.
A part holds a random share of what one study measured. “And” joins repeats or separate records; there may be more than shown.
Sequence of UniProt Q5S007 (whole entry, unmodified, looked up): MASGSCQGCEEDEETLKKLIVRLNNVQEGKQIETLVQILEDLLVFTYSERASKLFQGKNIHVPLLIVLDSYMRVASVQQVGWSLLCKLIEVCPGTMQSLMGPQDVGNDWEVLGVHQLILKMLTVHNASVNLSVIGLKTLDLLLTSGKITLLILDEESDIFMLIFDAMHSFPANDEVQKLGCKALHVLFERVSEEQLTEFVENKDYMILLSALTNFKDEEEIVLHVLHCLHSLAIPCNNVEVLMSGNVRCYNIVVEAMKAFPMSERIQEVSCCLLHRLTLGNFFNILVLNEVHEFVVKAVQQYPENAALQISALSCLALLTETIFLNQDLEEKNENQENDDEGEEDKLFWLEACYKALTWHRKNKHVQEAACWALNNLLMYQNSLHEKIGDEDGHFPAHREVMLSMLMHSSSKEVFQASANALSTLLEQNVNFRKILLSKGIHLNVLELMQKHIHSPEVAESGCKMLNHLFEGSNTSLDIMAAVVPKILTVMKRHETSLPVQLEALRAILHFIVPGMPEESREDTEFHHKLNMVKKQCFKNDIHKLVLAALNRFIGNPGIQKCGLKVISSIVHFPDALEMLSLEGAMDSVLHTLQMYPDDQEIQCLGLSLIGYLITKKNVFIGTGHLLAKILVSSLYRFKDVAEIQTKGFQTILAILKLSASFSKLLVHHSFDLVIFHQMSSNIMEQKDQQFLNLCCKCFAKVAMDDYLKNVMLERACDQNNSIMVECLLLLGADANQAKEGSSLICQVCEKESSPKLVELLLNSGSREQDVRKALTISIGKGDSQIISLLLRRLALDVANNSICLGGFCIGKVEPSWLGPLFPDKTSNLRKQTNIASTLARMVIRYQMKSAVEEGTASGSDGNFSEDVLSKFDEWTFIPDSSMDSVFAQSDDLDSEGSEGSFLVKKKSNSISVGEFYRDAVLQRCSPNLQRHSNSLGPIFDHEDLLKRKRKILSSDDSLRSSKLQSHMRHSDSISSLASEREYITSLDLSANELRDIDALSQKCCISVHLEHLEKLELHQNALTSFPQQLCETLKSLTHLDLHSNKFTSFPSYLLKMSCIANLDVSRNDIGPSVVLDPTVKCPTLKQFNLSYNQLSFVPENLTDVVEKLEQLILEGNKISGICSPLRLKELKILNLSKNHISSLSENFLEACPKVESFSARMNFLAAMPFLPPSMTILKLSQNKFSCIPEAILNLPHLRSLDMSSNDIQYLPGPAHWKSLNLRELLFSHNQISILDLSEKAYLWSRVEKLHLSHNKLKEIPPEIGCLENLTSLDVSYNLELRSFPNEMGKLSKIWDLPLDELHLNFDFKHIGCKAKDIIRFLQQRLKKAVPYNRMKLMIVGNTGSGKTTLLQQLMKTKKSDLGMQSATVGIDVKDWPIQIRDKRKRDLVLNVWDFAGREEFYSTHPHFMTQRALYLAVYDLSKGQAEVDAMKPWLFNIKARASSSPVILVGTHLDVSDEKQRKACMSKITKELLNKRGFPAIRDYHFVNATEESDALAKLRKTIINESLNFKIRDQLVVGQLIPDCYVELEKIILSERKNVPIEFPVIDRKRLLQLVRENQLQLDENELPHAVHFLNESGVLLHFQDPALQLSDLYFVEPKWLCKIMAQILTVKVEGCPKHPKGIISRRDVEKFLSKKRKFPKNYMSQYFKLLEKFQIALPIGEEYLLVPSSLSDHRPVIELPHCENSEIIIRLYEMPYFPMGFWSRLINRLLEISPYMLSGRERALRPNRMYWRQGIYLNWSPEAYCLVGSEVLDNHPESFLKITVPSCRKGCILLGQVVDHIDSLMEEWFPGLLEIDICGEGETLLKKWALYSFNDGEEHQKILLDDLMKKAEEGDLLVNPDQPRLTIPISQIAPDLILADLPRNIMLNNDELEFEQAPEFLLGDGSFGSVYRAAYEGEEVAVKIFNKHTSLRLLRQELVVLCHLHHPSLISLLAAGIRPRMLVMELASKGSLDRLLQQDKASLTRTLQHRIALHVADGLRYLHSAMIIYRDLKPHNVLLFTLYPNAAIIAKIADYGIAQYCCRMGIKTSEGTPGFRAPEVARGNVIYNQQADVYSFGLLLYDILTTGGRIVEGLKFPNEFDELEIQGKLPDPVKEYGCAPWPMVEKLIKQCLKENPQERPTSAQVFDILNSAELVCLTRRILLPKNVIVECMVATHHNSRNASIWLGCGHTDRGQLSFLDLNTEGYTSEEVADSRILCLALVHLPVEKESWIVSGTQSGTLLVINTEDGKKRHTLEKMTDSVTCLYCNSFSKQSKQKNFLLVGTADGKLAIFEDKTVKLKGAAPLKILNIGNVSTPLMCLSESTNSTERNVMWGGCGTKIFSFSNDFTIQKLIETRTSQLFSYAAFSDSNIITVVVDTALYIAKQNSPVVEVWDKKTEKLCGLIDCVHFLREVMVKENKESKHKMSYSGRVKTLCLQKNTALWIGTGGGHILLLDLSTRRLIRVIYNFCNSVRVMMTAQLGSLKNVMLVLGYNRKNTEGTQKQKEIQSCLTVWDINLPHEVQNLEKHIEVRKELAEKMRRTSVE
Sequence of UniProt O94921 (whole entry, looked up): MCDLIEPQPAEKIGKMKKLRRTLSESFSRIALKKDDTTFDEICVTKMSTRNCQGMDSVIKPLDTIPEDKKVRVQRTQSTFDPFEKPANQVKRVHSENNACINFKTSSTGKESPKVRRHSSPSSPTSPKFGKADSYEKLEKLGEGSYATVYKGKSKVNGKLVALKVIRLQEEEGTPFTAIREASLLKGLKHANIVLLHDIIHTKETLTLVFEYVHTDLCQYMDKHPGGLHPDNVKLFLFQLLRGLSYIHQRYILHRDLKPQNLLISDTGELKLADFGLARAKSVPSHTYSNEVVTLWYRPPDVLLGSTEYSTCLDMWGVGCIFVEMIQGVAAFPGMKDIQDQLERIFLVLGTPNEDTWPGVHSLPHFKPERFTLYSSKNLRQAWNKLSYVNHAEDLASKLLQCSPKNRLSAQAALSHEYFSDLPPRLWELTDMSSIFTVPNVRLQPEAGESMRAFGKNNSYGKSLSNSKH

Set 1 — method: DNA microarray; baseline: untreated cells
Structure (SMILES): COCC1CC2C(CCC3(C)C(O)CCC23)c2ccc(O)cc21 (stereo not shown)
| cell line | refers to | tested at | notes | log2 fold change |
| --- | --- | --- | --- | --- |
| PANC-1 | KIF20A | concentration not given | lower dose arm | -0.58 and -0.559 and -0.6 and -0.638 and -0.586 |
| PANC-1 | CCL22 | concentration not given | lower dose arm | 0 |
| PANC-1 | GZMK | concentration not given | lower dose arm | 0 |
| A549 | MCM4 | concentration not given |  | -0.886 |
| SK-OV-3 | RFC3 | concentration not given | lower dose arm | 0.0929 |
| A549 | AURKA | 50 µM |  | -0.419 |
| PANC-1 | MCM10 | concentration not given |  | -1.2 |
| PANC-1 | GINS1 | concentration not given | lower dose arm | -0.497 |
| A549 | CDCA8 | 50 µM |  | -0.384 |
| A549 | OLIG2 | 50 µM |  | 5.42 |
| A549 | CALR3 | 50 µM |  | 0.797 |

Set 2 — organism: Arabidopsis thaliana; strain: Col-0; tested at: 3.125 µg/mL; notes: seed germination, single repetition
| Compound | hypocotyl length |
| --- | --- |
| CCN1C(=O)C(O)(C(=O)O)Oc2cc(F)ccc21 (stereo not shown) | 2.35 cm and 2.21 cm and 2.26 cm and 2.12 cm and 2.11 cm |
| O=C(O)C1(O)Oc2cc(F)ccc2N(Cc2ccccc2)C1=O (stereo not shown) | 1.92 cm and 1.8 cm and 1.84 cm and 1.83 cm and 1.94 cm |
| Cc1ccc2c(c1)OC(O)(C(=O)O)C(=O)N2Cc1ccccc1 (stereo not shown) | 2.06 cm and 2.08 cm and 2.1 cm and 2.07 cm |
| CCCN1C(=O)C(O)(C(=O)O)Oc2cc(F)ccc21 (stereo not shown) | 2.3 cm and 2.43 cm and 2.31 cm and 2.21 cm |
| O=C(O)C1(O)Oc2cc(Br)ccc2N(Cc2ccccc2)C1=O (stereo not shown) | 2.13 cm and 2.11 cm and 2.08 cm and 2.07 cm |

Set 3 — cell line: U-87 MG; tested at: concentration not given; baseline: DMSO
Compound: CCN1/C(=C/C=C2\CCCC(/C=C/C3=[N+](CC)c4ccccc4C3(C)C)=C2NCCCCCCCCN2CCC(Nc3nc4ccccc4n3Cc3ccc(F)cc3)CC2)C(C)(C)c2ccccc21
| refers to | log2 fold change |
| --- | --- |
| ANGPTL2 mRNA | -1.86 |
| C14orf132 mRNA | -1.07 |
| ADPRM mRNA | 1.17 |
| STX3 mRNA | 1.26 |
| RMI1 mRNA | -1.08 |
| SKA3 mRNA | -1.52 |
| HTR2A mRNA | -4.01 |
| EAF2 mRNA | 1.9 |
| KIF15 mRNA | -2.03 |
| KANSL3 mRNA | 1 |
| BEX5 mRNA | 1.76 |
| PCDHB5 mRNA | -1.31 |

Set 4 — tested at: 1 µM
Compound: CC[C@@]1(c2ccccc2)C2=C(CC(C)(C)CC2=O)Nc2n[nH]cc21
| target | effect on | method | baseline | remaining binding [%] |
| --- | --- | --- | --- | --- |
| Serine/threonine-protein kinase 33 (STK33, Homo sapiens, UniProt Q9BYT3) | kinase binding | KINOMEscan | DMSO control | 98 |
| Receptor-interacting serine/threonine-protein kinase 4 (RIPK4, Homo sapiens, UniProt P57078) | kinase binding | KINOMEscan | DMSO control | 97 |
| Receptor-type tyrosine-protein kinase FLT3, autoinhibited (FLT3, Homo sapiens, UniProt P36888) | binding | competition with immobilised ligand |  | 100 |
| Tyrosine-protein kinase JAK3 (JAK3, Homo sapiens, UniProt P52333) | kinase binding | KINOMEscan | DMSO control | 100 |
| Phosphatidylinositol 3-kinase catalytic subunit type 3 (PIK3C3, Homo sapiens, UniProt Q8NEB9) | binding | competition with immobilised ligand |  | 94 |
| Leucine-rich repeat serine/threonine-protein kinase 2 (LRRK2, Homo sapiens, UniProt Q5S007, G2019S) | kinase binding | KINOMEscan | DMSO control | 77 |
| Cyclin-dependent kinase 14 (CDK14, Homo sapiens, UniProt O94921) | binding | competition with immobilised ligand |  | 100 |
| Cyclin-dependent kinase-like 1 (CDKL1, Homo sapiens, UniProt Q00532) | binding | competition with immobilised ligand |  | 73 |
| Tyrosine-protein kinase ABL1, non-phosphorylated (ABL1, Homo sapiens, UniProt P00519, H396P) | kinase binding | KINOMEscan | DMSO control | 75 |
| Epidermal growth factor receptor (EGFR, Homo sapiens, UniProt P00533) | binding | competition with immobilised ligand |  | 100 |
| Tyrosine-protein kinase ABL2 (ABL2, Homo sapiens, UniProt P42684) | kinase binding | KINOMEscan | DMSO control | 88 |
| Tyrosine-protein kinase ABL1, phosphorylated (ABL1, Homo sapiens, UniProt P00519, F317L) | kinase binding | KINOMEscan | DMSO control | 100 |
| Phosphatidylinositol 3-kinase C2 domain-containing subunit gamma (PIK3C2G, Homo sapiens, UniProt O75747) | kinase binding | KINOMEscan | DMSO control | 92 |
| Casein kinase II subunit alpha' (CSNK2A2, Homo sapiens, UniProt P19784) | binding | competition with immobilised ligand |  | 100 |
| Macrophage-stimulating protein receptor (MST1R, Homo sapiens, UniProt Q04912) | binding | competition with immobilised ligand |  | 66 |
| FLT3 ITD/F691L, human |  | KINOMEscan |  | 92 |
| Tyrosine-protein kinase Srms (SRMS, Homo sapiens, UniProt Q9H3Y6) | binding | competition with immobilised ligand |  | 100 |

Set 5 — cell line: ASPC1; effect on: cell growth or viability; method: ATP luminescence; time: 6 days
Compound: Cc1ncsc1-c1ccc(C(CO)NC(=O)C2CC(O)CN2C(=O)C(NC(=O)c2ccc(COc3c(-c4c(C)c(F)cc5[nH]ncc45)c(C4CC4)cc4c(N5CC6CC5CN6)nc(OC5CCOCC5)nc34)cc2)C(C)C)cc1 (stereo not shown)
| tested at | viability |
| --- | --- |
| 0.3 µM | 36.4% and 24.7% and 39.5% and 24% and 21.8% and 27.1% |
| 30 nM | 73.1% and 71.9% and 89.6% and 78.9% and 85.3% and 80.7% |
| 3 µM | 4.83% and 3.58% and 3.83% and 4.56% and 5.77% and 5.14% |
| 1 µM | 8% and 6.9% and 4.25% and 7.37% and 8.36% and 7.74% |
| 3 nM | 87.2% and 94.8% and 79.2% and 89.7% and 84.9% and 79.7% |
| 10 µM | 3.78% and 4.12% and 4.21% and 6.43% and 5.29% and 3.33% |

Set 6 — effect on: thermal unfolding; method: differential scanning fluorimetry; tested at: 5.5 µM; reading: higher = more unfolded
SMILES: C[C@@H]1CN(c2ccc(-c3cc(C(=O)NCCOCCOCCOCCOCCNC(=O)Cn4cc(-c5[nH]cc(C(=O)N[C@@H](CC(N)=O)c6ccc(F)c(Cl)c6)c5-c5ccc(Cl)cc5F)cn4)ccc3F)cc2NC(=O)c2c[nH]c(=O)cc2C(F)(F)F)C[C@H](C)N1C
WDR5: WD repeat-containing protein 5 (WDR5, Homo sapiens, UniProt P61964)
DCAF1: DDB1- and CUL4-associated factor 1 (DCAF1, Homo sapiens, UniProt Q9Y4B6)
Sequence of UniProt Q9Y4B6 (whole entry, looked up): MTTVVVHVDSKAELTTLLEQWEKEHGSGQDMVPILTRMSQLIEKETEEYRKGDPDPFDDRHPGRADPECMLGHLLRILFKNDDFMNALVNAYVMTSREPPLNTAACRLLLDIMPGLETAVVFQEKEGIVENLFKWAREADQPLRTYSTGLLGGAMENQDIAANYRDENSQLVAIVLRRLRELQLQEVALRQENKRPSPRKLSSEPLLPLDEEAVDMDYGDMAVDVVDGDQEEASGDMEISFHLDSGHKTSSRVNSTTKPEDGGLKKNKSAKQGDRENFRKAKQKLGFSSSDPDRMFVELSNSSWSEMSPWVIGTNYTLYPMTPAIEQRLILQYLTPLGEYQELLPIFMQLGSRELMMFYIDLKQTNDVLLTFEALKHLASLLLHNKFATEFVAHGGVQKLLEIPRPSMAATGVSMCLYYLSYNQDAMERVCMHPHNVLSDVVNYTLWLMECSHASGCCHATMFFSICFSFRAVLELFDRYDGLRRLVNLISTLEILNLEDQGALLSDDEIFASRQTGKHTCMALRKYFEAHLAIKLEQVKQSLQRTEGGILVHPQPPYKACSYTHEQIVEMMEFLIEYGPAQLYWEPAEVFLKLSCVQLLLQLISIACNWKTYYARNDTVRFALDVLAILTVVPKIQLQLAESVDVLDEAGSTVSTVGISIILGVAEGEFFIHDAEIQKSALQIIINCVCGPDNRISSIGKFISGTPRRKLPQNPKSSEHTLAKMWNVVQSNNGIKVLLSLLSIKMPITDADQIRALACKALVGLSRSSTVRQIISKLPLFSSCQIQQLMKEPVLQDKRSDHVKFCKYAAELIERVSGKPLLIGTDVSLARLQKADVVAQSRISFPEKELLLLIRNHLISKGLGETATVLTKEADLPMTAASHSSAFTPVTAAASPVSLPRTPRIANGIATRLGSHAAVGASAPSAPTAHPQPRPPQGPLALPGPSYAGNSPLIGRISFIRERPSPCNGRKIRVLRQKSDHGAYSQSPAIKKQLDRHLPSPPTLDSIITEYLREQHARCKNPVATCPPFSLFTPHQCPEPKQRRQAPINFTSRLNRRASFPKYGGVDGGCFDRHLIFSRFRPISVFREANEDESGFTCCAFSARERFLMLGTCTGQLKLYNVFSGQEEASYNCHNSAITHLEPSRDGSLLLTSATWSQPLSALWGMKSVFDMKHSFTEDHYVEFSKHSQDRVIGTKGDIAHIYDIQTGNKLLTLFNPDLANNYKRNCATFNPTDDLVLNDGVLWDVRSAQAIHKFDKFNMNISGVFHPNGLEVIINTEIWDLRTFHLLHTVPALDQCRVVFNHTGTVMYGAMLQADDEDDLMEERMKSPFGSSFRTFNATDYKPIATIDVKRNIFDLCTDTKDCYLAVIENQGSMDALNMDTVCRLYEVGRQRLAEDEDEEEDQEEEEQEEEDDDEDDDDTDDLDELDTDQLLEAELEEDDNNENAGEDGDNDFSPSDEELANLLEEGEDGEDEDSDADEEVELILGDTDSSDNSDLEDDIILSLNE
| target | temperature | SYPRO Orange fluorescence |
| --- | --- | --- |
| WDR5 | 50.2 °C | 14500 a.u. |
| DCAF1 | 42.8 °C | 11300 a.u. |
| DCAF1 | 42.6 °C | 11200 a.u. |
| WDR5 | 35.8 °C | 14300 a.u. |
| DCAF1 | 36.8 °C | 9360 a.u. |
| DCAF1 | 37 °C | 9400 a.u. |
| WDR5 | 43 °C | 14300 a.u. |
| DCAF1 | 65.81 °C | 56500 a.u. |
| DCAF1 | 53.21 °C | 16800 a.u. |
| DCAF1 | 71.61 °C | 52700 a.u. |
| WDR5 | 75.81 °C | 12600 a.u. |

Set 7 — SMILES: CCCNC(=O)COc1cc(C)c(Cl)c(C)c1; action: inhibitor; cell line: CHO-BC cells; notes: unit not given
Target: Sodium-dependent neutral amino acid transporter B(0)AT1 (SLC6A19, Homo sapiens, UniProt Q695T7)
Sequence of UniProt Q695T7 (whole entry, looked up): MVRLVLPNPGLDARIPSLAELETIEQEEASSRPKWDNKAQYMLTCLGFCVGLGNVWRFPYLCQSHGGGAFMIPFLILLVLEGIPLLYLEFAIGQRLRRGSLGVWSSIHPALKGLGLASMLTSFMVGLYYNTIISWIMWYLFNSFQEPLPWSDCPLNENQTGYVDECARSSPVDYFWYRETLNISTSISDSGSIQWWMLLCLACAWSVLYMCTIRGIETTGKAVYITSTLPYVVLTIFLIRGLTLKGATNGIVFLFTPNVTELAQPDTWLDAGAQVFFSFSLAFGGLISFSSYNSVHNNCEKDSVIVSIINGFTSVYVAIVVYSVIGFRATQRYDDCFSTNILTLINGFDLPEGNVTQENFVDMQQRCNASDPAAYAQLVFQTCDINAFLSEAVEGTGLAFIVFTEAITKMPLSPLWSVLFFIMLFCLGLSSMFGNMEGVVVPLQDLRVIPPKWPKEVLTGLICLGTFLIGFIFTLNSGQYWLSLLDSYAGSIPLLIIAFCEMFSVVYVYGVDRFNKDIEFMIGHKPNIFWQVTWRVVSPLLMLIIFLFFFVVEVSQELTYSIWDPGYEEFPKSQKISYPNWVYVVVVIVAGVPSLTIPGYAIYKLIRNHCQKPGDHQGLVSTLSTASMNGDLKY
| method | tested at | time | added | baseline | remaining transport activity |
| --- | --- | --- | --- | --- | --- |
| L-[14C]leucine uptake | 0.001 µM | 6 min | GPNA 3 mM, JPH203 3 µM | uninhibited cells | 0.949 |
| FLIPR membrane potential | 30 µM |  |  | no inhibitor | 0.278 |
| L-[14C]leucine uptake | 30 µM | 6 min | GPNA 3 mM, JPH203 3 µM | uninhibited cells | 0.114 |

Other studies, line by line
| Compound | tested on | assay | test system | setting | measurement | value |
| --- | --- | --- | --- | --- | --- | --- |
| Cc1ccc(O)c(C)c1-c1cnc2[nH]c(-c3cnc(N4CCC(CN5CCN(c6cc7c(cc6F)n(C6CCC(=O)NC6=O)c(=O)n7C)CC5)CC4)nc3)cc2c1C#N (stereo not shown) | Membrane-associated tyrosine- and threonine-specific cdc2-inhibitory kinase (PKMYT1, Homo sapiens, UniProt Q99640) | degrader, automated immunoblot | HCC1569 | 1000.00 nM | degradation | 79% |
| Cc1nc(C)c(C=[N+]([O-])C(C)(C)C)nc1C |  | HPLC-ECD | MPTP mouse model, striatum | 30 mg/kg | striatal dopamine content | 6.65 ng/mg tissue and 5.62 ng/mg tissue and 6.88 ng/mg tissue and 5.76 ng/mg tissue and 7.13 ng/mg tissue and 5.25 ng/mg tissue and 6.36 ng/mg tissue |
| Cc1ccc(O)c(C)c1-c1cnc2[nH]c(-c3cnc(N)nc3)cc2c1C#N | biomarker-negative wild-type cell lines | cell growth |  | 168 h | IC50 | 2.88 µM |
| Cc1ccc(O)c(C)c1-c1cnc2[nH]c(-c3cnc(N4CCC(CCN5CCN(c6cc7c(cc6F)c(N6CCC(=O)NC6=O)nn7C)CC5)CC4)nc3)cc2c1C#N | HCC1569 | in-cell western, refers to: CDK1 phospho-Thr14 |  | 1000 nM | pCDK1 (Thr14) level | 149 RLU and 138 RLU |
| Cc1ccc(O)c(C)c1-c1cnc2[nH]c(-c3cnc(N4CCC(CN5CCN(c6ccc7c(c6F)CN(C6CCC(=O)NC6=O)C7=O)CC5)CC4)nc3)cc2c1C#N (stereo not shown) |  |  | CD-1 mouse, female, plasma | oral, 20 mg/kg | oral bioavailability | 39.3% |

Repeated from above (set 5):
| tested at | viability |
| --- | --- |
| 1 µM | 8% and 6.9% and 4.25% and 7.37% and 8.36% and 7.74% |
| 3 µM | 4.83% and 3.58% and 3.83% and 4.56% and 5.77% and 5.14% |
| 3 nM | 87.2% and 94.8% and 79.2% and 89.7% and 84.9% and 79.7% |
| 10 µM | 3.78% and 4.12% and 4.21% and 6.43% and 5.29% and 3.33% |
| 30 nM | 73.1% and 71.9% and 89.6% and 78.9% and 85.3% and 80.7% |
